Results collected from several papers.
A part holds a random share of what one study measured. Several values in a cell are separate wells, animals, samples, runs or records. Numbers after ± are the reported error.
UniProt Q6P3R8, sequence (whole entry, looked up): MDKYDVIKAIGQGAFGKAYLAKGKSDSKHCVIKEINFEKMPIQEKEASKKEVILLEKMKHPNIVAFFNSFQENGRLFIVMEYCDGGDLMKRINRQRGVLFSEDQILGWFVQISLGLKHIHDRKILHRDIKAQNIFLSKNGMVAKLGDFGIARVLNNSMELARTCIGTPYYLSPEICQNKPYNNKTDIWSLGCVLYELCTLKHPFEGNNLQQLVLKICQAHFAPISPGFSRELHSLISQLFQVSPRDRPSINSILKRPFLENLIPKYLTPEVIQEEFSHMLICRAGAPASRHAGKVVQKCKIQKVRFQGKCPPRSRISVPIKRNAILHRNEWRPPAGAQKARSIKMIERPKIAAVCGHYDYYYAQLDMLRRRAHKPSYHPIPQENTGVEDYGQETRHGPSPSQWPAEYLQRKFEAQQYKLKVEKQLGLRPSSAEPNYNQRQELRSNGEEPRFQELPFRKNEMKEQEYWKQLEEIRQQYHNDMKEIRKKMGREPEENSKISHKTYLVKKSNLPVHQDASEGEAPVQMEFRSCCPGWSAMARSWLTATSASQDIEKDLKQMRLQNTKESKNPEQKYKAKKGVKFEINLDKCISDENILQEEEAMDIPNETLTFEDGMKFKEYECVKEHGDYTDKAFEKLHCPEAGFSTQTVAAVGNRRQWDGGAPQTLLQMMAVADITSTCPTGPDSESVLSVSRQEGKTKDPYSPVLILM
UniProt Q9BUB5, sequence (whole entry, looked up): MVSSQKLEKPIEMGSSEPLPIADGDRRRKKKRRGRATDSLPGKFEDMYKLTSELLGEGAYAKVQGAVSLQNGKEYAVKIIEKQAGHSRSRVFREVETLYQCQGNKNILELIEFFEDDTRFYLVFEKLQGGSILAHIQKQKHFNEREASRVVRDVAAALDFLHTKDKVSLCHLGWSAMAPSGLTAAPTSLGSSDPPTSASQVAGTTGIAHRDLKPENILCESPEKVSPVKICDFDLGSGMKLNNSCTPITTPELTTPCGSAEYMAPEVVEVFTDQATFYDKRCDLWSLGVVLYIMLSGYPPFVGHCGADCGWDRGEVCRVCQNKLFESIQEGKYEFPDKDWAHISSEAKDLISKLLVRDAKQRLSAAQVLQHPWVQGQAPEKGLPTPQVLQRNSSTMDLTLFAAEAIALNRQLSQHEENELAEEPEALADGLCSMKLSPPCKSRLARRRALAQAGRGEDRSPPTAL
UniProt Q9NRP7, sequence (whole entry, looked up): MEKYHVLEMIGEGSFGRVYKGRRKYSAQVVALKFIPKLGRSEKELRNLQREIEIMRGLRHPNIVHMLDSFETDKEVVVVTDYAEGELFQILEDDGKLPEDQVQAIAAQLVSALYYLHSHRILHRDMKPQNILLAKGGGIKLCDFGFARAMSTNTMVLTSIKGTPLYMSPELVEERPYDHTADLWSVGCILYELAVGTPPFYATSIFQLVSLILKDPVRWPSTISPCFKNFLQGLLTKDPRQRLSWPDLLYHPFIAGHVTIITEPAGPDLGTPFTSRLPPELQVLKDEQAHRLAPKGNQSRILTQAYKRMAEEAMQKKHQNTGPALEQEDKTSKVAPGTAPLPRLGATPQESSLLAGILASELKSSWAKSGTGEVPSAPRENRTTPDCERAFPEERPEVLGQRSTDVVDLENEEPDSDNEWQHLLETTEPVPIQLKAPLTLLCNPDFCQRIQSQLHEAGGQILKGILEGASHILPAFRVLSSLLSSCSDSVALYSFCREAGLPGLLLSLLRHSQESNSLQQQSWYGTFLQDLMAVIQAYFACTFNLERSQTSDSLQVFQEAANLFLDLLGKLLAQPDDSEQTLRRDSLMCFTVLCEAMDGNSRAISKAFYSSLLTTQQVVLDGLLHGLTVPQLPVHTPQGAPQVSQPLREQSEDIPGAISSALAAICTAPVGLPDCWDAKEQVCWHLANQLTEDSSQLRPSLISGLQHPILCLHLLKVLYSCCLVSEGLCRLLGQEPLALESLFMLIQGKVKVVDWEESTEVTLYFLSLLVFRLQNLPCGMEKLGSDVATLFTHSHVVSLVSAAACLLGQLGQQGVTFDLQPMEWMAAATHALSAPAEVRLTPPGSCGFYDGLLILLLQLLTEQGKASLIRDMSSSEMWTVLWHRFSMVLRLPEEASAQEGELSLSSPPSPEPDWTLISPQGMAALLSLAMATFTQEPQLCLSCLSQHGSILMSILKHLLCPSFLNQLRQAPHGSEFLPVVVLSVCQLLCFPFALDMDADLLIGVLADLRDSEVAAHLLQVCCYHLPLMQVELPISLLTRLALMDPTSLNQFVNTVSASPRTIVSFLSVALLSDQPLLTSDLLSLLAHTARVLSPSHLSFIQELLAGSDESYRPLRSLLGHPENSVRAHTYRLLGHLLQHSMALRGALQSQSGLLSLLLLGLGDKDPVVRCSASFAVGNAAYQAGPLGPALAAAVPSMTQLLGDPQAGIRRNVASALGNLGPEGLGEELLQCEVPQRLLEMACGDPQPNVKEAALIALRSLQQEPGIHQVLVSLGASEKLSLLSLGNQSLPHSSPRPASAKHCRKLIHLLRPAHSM
UniProt Q00526, sequence (whole entry, looked up): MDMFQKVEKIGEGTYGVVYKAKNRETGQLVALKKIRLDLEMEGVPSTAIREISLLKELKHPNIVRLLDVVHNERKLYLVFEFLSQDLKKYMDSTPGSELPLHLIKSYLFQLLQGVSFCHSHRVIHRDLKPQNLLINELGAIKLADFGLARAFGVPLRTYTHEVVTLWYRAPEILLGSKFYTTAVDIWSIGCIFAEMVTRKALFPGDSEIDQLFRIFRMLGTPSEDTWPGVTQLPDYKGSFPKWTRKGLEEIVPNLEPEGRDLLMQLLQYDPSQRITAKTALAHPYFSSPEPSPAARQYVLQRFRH
UniProt Q96J92, sequence (whole entry, looked up): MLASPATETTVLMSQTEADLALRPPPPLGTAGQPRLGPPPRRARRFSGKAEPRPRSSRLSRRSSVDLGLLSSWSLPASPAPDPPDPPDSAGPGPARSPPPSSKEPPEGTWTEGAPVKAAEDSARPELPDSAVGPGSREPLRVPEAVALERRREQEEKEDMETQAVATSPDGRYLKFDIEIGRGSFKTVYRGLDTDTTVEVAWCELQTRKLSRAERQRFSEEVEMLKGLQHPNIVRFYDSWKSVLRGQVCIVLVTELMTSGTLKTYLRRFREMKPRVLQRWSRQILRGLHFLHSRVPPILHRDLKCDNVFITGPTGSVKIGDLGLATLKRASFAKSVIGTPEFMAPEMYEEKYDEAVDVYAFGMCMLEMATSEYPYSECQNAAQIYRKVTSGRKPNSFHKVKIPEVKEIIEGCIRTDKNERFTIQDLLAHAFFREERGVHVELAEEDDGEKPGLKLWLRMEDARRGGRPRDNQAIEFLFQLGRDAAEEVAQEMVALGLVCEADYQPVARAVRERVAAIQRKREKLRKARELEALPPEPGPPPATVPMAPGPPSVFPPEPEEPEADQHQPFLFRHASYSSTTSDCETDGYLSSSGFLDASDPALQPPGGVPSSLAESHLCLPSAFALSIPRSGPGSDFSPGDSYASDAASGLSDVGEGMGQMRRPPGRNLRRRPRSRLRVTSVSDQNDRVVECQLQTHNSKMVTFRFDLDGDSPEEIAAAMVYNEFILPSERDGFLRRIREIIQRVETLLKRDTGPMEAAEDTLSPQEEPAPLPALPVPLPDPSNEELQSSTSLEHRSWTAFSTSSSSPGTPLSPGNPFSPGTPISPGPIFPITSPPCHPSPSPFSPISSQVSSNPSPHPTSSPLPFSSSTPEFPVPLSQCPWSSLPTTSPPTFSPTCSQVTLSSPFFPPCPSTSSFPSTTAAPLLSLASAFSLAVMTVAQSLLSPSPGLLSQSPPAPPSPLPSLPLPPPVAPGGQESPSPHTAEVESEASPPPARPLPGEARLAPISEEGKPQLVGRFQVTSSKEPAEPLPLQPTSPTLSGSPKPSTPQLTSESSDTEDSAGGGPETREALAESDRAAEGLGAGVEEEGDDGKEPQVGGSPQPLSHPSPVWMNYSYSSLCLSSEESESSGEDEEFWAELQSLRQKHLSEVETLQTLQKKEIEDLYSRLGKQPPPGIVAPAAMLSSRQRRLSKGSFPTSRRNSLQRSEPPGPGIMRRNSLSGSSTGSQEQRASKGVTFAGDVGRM
UniProt Q9UHD2, sequence (whole entry, looked up): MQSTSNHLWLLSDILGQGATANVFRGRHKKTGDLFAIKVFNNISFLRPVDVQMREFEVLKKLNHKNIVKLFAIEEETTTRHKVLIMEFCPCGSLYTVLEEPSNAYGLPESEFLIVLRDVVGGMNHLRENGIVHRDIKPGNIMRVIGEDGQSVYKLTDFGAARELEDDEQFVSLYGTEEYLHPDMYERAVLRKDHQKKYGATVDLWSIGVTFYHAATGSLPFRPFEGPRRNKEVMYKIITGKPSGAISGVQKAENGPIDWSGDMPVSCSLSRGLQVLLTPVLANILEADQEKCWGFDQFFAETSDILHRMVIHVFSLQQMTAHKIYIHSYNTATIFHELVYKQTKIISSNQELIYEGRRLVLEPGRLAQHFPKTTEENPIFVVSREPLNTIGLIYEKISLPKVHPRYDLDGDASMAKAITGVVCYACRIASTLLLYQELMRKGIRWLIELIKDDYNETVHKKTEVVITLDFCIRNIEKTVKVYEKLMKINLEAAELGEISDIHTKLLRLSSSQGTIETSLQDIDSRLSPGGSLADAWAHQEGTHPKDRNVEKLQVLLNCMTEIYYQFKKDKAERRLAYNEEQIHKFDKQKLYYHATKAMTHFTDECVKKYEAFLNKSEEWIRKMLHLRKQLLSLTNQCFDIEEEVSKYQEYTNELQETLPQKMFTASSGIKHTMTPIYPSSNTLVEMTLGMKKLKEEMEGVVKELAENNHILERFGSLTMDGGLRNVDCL

Series 1
SMILES: COc1cc(C(=O)OCCCN2CCCN(CCCOC(=O)c3cc(OC)c(OC)c(OC)c3)CC2)cc(OC)c1OC
Read-out: mechanical pain
Technique: von Frey test
Species: mouse, STZ diabetic neuropathy
Route: intravenous
Dose: 30 mg/kg
time | notes | paw withdrawal threshold
3 h post-dose | third injection | 0.08 g and 0.05 g and 0.32 g and 0.4 g and 0.29 g
1 h post-dose | first injection, day 8 | 0.29 g and 0.4 g and 0.23 g and 0.51 g and 0.02 g
1 h post-dose | third injection | 0.4 g and 0.1 g and 0.05 g and 0.27 g

Series 2
Target: Serine/threonine-protein kinase BRSK2 (BRSK2, Homo sapiens, UniProt Q8IWQ3)
Read-out: enzyme activity
Mode: inhibitor
Tested at: 0.5 µM
Baseline: control
Target sequence (Q8IWQ3 1-736): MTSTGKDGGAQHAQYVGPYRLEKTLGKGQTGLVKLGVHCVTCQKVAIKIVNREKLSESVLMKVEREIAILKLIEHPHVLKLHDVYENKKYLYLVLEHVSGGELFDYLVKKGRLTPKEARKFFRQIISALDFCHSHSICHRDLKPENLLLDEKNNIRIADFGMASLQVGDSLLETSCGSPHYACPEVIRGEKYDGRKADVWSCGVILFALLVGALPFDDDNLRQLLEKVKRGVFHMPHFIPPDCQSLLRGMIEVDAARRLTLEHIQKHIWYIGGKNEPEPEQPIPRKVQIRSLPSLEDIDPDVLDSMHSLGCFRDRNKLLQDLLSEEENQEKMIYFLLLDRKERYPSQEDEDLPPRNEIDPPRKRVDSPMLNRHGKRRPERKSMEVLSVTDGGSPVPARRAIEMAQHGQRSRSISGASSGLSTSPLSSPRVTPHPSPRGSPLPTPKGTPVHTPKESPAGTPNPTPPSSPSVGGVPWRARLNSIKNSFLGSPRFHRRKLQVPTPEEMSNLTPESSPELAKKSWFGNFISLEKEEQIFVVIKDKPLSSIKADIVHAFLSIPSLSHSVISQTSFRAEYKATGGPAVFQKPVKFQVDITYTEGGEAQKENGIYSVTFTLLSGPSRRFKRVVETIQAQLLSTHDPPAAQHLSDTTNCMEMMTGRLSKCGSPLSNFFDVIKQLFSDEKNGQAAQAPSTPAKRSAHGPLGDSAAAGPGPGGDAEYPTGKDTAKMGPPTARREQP
Compound | remaining activity [%]
FC(F)(F)c1ccc(/C=C/c2nc(COc3ccc(CCCCn4ccnn4)cc3)co2)cc1 | 99.6
N#C/C(=C(/N)SC1C=CC=CC1)c1cccc(C(O)c2ccncc2)c1 (stereo not drawn) | 101
O=Nc1c(-c2c(O)[nH]c3ccccc23)[nH]c2ccccc12 | 28
COc1cc2c(N3CCN(C(=O)Nc4ccc(OC(C)C)cc4)CC3)ncnc2cc1OCCCN1CCCCC1 | 98.6
CCCCc1c(-c2ccc(O)cc2)[nH]c2nccnc12 | 87.2
CC(C)N(CCC(=O)c1ccc2ccccc2c1)Cc1ccccc1 | 103

Series 3
Structure (SMILES): COc1ccc2c(c1)O[C@@H](c1ccc(OC)c(OC)c1)C[C@H]2NC(=O)C1(c2ccc3c(c2)OC(F)(F)O3)CC1
Read-out: cell-free assay
Technique: competition with immobilised ligand
Tested at: 1 µM
target | remaining binding [%]
Hepatocyte growth factor receptor (MET, Homo sapiens, UniProt P08581, M1250T) | 95
MAP kinase-interacting serine/threonine-protein kinase 1 (MKNK1, Homo sapiens, UniProt Q9BUB5) | 78
Tyrosine-protein kinase ABL1, phosphorylated (ABL1, Homo sapiens, UniProt P00519, Y253F) | 78
Serine/threonine-protein kinase Nek5 (NEK5, Homo sapiens, UniProt Q6P3R8) | 71
Serine/threonine-protein kinase WNK4 (WNK4, Homo sapiens, UniProt Q96J92) | 85
Serine/threonine-protein kinase 36 (STK36, Homo sapiens, UniProt Q9NRP7) | 100
Cyclin-dependent kinase 3 (CDK3, Homo sapiens, UniProt Q00526) | 100
Serine/threonine-protein kinase TBK1 (TBK1, Homo sapiens, UniProt Q9UHD2) | 86

Single results of other studies
Structure (SMILES) | species | sample | dose | endpoint | value
OCCN1CCN(CCCN2c3ccccc3Sc3ccc(Cl)cc32)CC1 | mouse | serum | dose not given | serum total bilirubin | 1.1 ± 0.5 mg/dL

Repeated from above (series 3):
target | remaining binding [%]
Serine/threonine-protein kinase TBK1 (TBK1, Homo sapiens, UniProt Q9UHD2) | 86
